Experimental data of several laboratories.
Lines come from different studies, so protocols differ. ± gives the spread as reported.
Cell line: A549

Compound = CN1CCC2(CC1)C/C(=N\N=C\c1ccc(Cl)cc1)c1ccccc1O2; test = cell growth or viability, MTT; conditions = 48 h; IC50 = 2.03 µM
Compound = O=Cc1cccc(NC(=O)Cn2cc(COc3ncnc4[nH]cnc34)nn2)c1; test = cell growth or viability, MTT; IC50 = 13.9 µM
Compound = Nc1nc(-c2cccc(NC(=O)c3cc4cc(Cl)ccc4[nH]3)c2)c(C(=O)c2ccccc2)[nH]1; test = cell growth or viability, resazurin; conditions = 72 h; IC50 = 15 µM
Compound = C/C(=N/NC(=O)c1cn(-c2ccccc2)nc1-c1ccc(C)cc1)c1c(O)cc(C)oc1=O; test = cell growth or viability, MTT; conditions = 48 h; IC50 = 97 µM
Compound = Cc1cc(C)c(C2CN(C)C3(C(=O)Nc4ccccc43)C2C(=O)c2ccc(Cl)cc2)c(C)c1 (centres unmarked); test = cell growth or viability, MTT; conditions = 48 h; IC50 = 10.3 µM
Compound = CNC(=O)c1c(C)oc2cc(Oc3ncnc4cc(OC)c(OC)cc34)ccc12; test = cell growth or viability, CCK-8; conditions = 48 h; IC50 = > 20 µM
Compound = Cc1cc(C)c(C2C3CCCN3C3(C(=O)Nc4ccccc43)C2C(=O)c2ccc(F)cc2)c(C)c1 (centres unmarked); test = cell growth or viability, MTT; conditions = 48 h; IC50 = 17.4 µM
Compound = CC(=O)c1[nH]c(N)nc1-c1cccc(NC(=O)c2cc3cc(F)ccc3[nH]2)c1; test = cell growth or viability, resazurin; conditions = 72 h; IC50 = 43.7 µM
Compound = O=C1Nc2ccccc2C1=NN=c1sc(-c2cccs2)nn1-c1ccc([N+](=O)[O-])cc1; test = cell growth or viability; IC50 = 23.2 µM
Compound = O=C(Nc1cc2ccccc2cc1C(=O)O)c1ccccc1; test = cytotoxicity, MTT; conditions = together with: visible light, BSA 0.6 mM; IC50 = > 100 µM
Compound = CC(=NN=C(N)[S-])C(C)=NN=C(N)[S-].NCc1ccccc1.NCc1ccccc1.O=[N+]([O-])[O-].[Co+3]; test = cell viability, MTT; conditions = 24 h then 48 h recovery, normoxia; IC50 = > 500 µM
Compound = O=[N+]([O-])c1ccc(-n2nc(-c3cccs3)sc2=NN=Cc2ccccc2)cc1; test = cell growth or viability; IC50 = 11.6 µM
Compound = COc1cccc2c1C(=O)c1c(O)c3c(c(O)c1C2=O)C[C@@](O)(C(=O)CO)C[C@@H]3O[C@H]1C[C@H](N)[C@H](O)[C@H](C)O1; test = cell growth or viability, MTT; IC50 = 5.86 µM
Compound = O=[N+]([O-])c1ccc2nc(/C=C/c3ccc(Cl)cc3)c(/C=C/c3ccc(Cl)cc3)nc2c1; test = cell growth or viability, MTT; conditions = 72 h; IC50 = > 100 µM
Compound = Cc1cc(C)c(C2CN(C)C3(C(=O)Nc4ccccc43)C2C(=O)c2ccccc2)c(C)c1 (centres unmarked); test = cell growth or viability, MTT; IC50 = < 10 µM
Compound = CCC(O)CC(=O)O[C@@H]1C[C@@H]2[C@@]3(C)CCC[C@](C)(CC)[C@@H]3CC[C@@]2(C)[C@@H]2C[C@@H](O)C3=C(C(=O)O[C@@H]3C)[C@@]12C (some centres unmarked); test = cell growth or viability, CCK-8; conditions = 24 h; IC50 = ≤ 25 µM
Compound = CCn1[c](=[Au-2][Cl])n(CC)c2ccccc21; test = cell growth or viability, crystal violet; conditions = 72 h; IC50 = 10 µM
Compound = Nc1nc(-c2ccc(NC(=O)c3cc4cc(Br)ccc4[nH]3)cc2)c(C(=O)c2ccccc2)[nH]1; test = cell growth or viability, resazurin; conditions = 72 h; IC50 = 14.2 µM
Compound = CC(C=NN=C(N)[S-])=NN=C(N)[S-].NCc1ccccc1.NCc1ccccc1.O=[N+]([O-])[O-].[Co+3]; test = cell viability, MTT; conditions = 24 h hypoxic, 48 h normoxic, hypoxic treatment; IC50 = ~27 µM
Compound = Clc1cccc(/C=C/c2nc3ccc(Br)cc3nc2/C=C/c2cccc(Cl)c2)c1; test = cell growth or viability, MTT; conditions = 72 h; IC50 = 42.4 µM
Compound = CCn1[c](=[Au-2]([Cl])([Cl])[Cl])n(CC)c2ccccc21; test = cell growth or viability, crystal violet; conditions = 72 h; IC50 = 11.6 µM
Compound = Cc1cc(C)c(C2CN(C)C3(C(=O)Nc4ccccc43)C2C(=O)c2ccc(Br)cc2)c(C)c1 (centres unmarked); test = cell growth or viability, MTT; conditions = 48 h; IC50 = 14.5 µM
Compound = O=[N+]([O-])c1ccc2nc(/C=C/c3ccc(Br)cc3)c(/C=C/c3ccc(Br)cc3)nc2c1; test = cell growth or viability, MTT; conditions = 72 h; IC50 = > 100 µM
Compound = CCN(CC)CC1CCN(c2ncc3ncnc(Nc4ccc(F)c(Cl)c4)c3n2)CC1; test = cell growth or viability, resazurin; conditions = 5 days; IC50 = 3.7 µM
Compound = COc1ccccc1/C=C/c1nc2ccc(Br)cc2nc1/C=C/c1ccccc1OC; test = cell growth or viability, MTT; conditions = 72 h; IC50 = 35.2 µM
Compound = Cc1cccc(C(=O)C2C(c3c(C)cc(C)cc3C)CN(C)C23C(=O)Nc2ccccc23)c1 (centres unmarked); test = cell growth or viability, MTT; IC50 = < 10 µM
Compound = Brc1ccc2nc(/C=C/c3ccccc3)c(/C=C/c3ccccc3)nc2c1; test = cell growth or viability, MTT; conditions = 72 h; IC50 = > 100 µM
Compound = C=CC1=C(C)c2cc3[nH]c(cc4nc(cc5[nH]c(cc1n2)c(C)c5CCC(=O)O)C(CCC(=O)O)=C4C)c(C)c3C=C; test = cytotoxicity, resazurin; conditions = 4 h incubation, dark; IC50 = > 100 µM
Compound = O=[N+]([O-])c1ccc2nc(/C=C/c3cccs3)c(/C=C/c3cccs3)nc2c1; test = cell growth or viability, MTT; conditions = 72 h; IC50 = > 100 µM
Compound = [NH2][Pt]12([NH2])([O]C(=O)CC(=O)[O]1)[O]C(=O)CC(=O)[O]2; test = cell viability, MTT; conditions = 96 h; IC50 = > 200 µM
Compound = C=CCc1ccc(O)c(-c2ccc(O)c(CC=C)c2)c1; test = cell proliferation, MTS; conditions = 24 h, together with: 10 µM BLM; IC50 = 10 µM
Compound = Nc1nc(-c2cccc(NC(=O)c3ccc4cccc(O)c4n3)c2)c(C(=O)c2ccccc2)[nH]1; test = cell growth or viability, resazurin; conditions = 72 h; IC50 = 28.8 µM
Compound = Cc1ccc(C(=O)C2C(c3c(C)cc(C)cc3C)C3CCCN3C23C(=O)Nc2ccccc23)cc1 (centres unmarked); test = cell growth or viability, MTT; conditions = 48 h; IC50 = 3.48 µM
Compound = CC1COc2c(N3CCN(C)CC3)c(F)cc3c(=O)c(C(=O)[O-])cn1c23.Cc1ccc(C(C)C)cc1.[Cl-].[Ru+2] (centres unmarked); test = cell growth or viability, MTT; conditions = 96 h; IC50 = > 320 µM
Compound = Cc1cccc(C(=O)C2C(c3c(C)cc(C)cc3C)C3CCCN3C23C(=O)Nc2ccccc23)c1 (centres unmarked); test = cell growth or viability, MTT; conditions = 48 h; IC50 = 7.8 µM
Compound = CC(=NNC(N)=S)C(C)=NNC(N)=S; test = cell viability, MTT; conditions = 24 h hypoxic, 48 h normoxic, hypoxic treatment; IC50 = 17.5 ± 2.7 µM
Compound = Cc1cc(C)c(C2C3CCCN3C3(C(=O)Nc4ccccc43)C2C(=O)c2ccc(Cl)cc2)c(C)c1 (centres unmarked); test = cell growth or viability, MTT; IC50 = < 10 µM
Compound = COc1ccc(/C=C/c2nc3ccc(Br)cc3nc2/C=C/c2ccc(OC)cc2)cc1; test = cell growth or viability, MTT; conditions = 72 h; IC50 = 38.2 µM
Compound = COc1ccc(/C=C\c2cc(OC)c(OC)c(OC)c2)cc1O; IC50 = 0.28 ± 0.05 µM
Compound = CC(C=NNC(N)=S)=NNC(N)=S; test = cell viability, MTT; conditions = 24 h then 48 h recovery, normoxia; IC50 = 0.06 ± 0.03 µM
Compound = O=[N+]([O-])c1cccc(/C=C/c2nc3ccc(Br)cc3nc2/C=C/c2cccc([N+](=O)[O-])c2)c1; test = cell growth or viability, MTT; conditions = 72 h; IC50 = > 100 µM

For quick reference, copied from above:
Compound = CCn1[c](=[Au-2]([Cl])([Cl])[Cl])n(CC)c2ccccc21; test = cell growth or viability, crystal violet; conditions = 72 h; IC50 = 11.6 µM
Compound = Brc1ccc2nc(/C=C/c3ccccc3)c(/C=C/c3ccccc3)nc2c1; test = cell growth or viability, MTT; conditions = 72 h; IC50 = > 100 µM
Compound = Cc1cc(C)c(C2C3CCCN3C3(C(=O)Nc4ccccc43)C2C(=O)c2ccc(F)cc2)c(C)c1 (centres unmarked); test = cell growth or viability, MTT; conditions = 48 h; IC50 = 17.4 µM
Compound = CC1COc2c(N3CCN(C)CC3)c(F)cc3c(=O)c(C(=O)[O-])cn1c23.Cc1ccc(C(C)C)cc1.[Cl-].[Ru+2] (centres unmarked); test = cell growth or viability, MTT; conditions = 96 h; IC50 = > 320 µM
